Measured values collected from several papers.
Parts stem from different laboratories: compare values within a part only. “And” joins repeats or separate records; there may be more than shown.
Sequence of UniProt Q16620 (whole entry, looked up): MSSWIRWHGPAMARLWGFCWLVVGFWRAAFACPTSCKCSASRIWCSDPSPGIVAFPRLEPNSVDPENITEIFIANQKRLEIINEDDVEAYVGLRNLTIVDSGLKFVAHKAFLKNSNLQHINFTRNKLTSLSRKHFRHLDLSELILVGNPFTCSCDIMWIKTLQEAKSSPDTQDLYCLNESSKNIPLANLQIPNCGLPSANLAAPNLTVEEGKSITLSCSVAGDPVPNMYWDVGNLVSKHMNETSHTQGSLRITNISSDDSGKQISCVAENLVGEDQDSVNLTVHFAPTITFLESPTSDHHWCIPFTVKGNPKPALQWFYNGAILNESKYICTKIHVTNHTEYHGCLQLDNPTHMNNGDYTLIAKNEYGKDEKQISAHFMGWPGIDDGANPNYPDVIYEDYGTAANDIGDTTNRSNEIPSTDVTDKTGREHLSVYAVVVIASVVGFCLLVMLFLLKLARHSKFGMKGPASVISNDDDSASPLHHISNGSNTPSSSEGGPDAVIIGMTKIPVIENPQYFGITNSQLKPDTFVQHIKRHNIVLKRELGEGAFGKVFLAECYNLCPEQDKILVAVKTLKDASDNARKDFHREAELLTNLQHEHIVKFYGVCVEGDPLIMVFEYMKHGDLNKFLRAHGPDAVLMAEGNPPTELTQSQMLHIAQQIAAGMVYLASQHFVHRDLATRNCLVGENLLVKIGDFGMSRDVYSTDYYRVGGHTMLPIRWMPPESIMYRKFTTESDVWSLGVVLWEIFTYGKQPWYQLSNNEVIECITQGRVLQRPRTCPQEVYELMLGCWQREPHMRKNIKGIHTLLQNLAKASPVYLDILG
Sequence of UniProt P15735 (whole entry, looked up): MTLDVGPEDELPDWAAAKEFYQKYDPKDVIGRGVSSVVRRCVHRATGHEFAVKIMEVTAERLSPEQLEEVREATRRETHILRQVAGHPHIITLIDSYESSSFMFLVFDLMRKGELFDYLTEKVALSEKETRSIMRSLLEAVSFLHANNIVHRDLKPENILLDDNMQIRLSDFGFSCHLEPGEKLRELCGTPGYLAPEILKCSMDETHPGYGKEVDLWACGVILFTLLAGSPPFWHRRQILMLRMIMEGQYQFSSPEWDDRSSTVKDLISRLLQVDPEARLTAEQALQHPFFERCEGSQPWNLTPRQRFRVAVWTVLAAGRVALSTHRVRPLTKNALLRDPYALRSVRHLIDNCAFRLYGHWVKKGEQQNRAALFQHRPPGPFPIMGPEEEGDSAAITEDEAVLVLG
Sequence of UniProt Q99986 (whole entry, looked up): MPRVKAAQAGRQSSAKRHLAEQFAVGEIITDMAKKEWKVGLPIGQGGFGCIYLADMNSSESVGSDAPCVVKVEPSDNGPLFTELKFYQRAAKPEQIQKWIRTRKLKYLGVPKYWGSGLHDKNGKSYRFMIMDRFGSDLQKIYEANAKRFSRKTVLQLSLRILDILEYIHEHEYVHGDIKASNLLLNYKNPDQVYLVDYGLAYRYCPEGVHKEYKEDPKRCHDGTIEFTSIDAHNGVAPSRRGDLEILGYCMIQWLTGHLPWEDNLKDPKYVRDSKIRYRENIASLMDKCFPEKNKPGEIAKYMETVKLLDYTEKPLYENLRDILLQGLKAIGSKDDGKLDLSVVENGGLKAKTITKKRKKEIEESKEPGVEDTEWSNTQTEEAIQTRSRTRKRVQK
Sequence of UniProt P08631 (whole entry, looked up): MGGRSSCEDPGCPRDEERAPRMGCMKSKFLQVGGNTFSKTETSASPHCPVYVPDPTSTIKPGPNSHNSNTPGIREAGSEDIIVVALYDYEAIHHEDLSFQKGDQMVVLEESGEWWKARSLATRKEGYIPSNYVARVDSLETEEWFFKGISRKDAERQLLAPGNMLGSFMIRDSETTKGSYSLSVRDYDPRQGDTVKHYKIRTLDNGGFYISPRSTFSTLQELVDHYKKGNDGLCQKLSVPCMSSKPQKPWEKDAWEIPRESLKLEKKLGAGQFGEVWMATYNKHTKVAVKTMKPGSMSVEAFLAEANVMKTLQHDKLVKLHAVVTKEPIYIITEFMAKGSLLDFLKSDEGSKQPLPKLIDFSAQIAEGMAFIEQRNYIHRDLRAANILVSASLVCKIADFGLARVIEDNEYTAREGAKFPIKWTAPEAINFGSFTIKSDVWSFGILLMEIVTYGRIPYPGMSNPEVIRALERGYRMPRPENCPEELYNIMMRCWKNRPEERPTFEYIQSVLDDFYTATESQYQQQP
Sequence of UniProt Q7L7X3 (whole entry, looked up): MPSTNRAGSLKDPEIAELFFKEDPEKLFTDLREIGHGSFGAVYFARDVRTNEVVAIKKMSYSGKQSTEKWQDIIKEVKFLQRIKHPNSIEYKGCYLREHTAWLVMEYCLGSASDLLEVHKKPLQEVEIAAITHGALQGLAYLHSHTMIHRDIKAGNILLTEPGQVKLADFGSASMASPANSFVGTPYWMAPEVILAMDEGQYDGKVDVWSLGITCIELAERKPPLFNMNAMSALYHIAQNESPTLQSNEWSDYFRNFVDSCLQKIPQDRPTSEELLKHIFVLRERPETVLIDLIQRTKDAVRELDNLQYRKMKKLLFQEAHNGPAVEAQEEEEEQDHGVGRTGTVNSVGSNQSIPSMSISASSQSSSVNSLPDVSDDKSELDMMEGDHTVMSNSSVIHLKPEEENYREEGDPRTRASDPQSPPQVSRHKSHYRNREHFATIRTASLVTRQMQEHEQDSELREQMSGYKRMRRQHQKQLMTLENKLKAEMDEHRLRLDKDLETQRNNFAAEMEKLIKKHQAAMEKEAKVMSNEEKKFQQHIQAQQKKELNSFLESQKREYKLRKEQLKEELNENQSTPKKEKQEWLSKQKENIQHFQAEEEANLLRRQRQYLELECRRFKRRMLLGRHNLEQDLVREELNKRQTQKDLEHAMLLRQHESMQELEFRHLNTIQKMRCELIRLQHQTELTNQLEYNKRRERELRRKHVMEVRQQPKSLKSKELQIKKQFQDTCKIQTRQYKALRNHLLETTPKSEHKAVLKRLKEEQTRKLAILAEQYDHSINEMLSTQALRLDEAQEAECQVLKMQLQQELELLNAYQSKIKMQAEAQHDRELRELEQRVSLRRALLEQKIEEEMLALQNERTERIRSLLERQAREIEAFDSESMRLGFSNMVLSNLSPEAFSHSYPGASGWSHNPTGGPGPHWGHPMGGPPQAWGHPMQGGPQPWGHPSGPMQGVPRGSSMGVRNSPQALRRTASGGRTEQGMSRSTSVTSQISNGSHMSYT
Sequence of UniProt P04049 (whole entry, looked up): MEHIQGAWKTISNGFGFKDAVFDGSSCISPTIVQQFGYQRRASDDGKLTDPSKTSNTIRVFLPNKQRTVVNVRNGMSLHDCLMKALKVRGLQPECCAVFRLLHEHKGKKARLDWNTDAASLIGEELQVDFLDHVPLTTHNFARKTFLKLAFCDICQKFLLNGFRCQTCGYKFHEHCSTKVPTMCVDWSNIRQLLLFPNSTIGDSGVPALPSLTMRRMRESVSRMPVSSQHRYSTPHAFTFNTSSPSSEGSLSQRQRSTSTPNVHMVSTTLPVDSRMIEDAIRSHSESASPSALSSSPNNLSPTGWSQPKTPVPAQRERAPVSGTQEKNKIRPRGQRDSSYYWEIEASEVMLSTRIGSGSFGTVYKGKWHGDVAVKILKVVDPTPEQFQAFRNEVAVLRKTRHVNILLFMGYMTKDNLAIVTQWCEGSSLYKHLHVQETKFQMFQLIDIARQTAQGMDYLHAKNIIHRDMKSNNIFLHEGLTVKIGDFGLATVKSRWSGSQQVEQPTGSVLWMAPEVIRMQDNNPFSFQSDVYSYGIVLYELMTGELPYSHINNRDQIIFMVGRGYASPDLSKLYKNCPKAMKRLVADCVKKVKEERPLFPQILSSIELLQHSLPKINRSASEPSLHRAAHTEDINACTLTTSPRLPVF
Sequence of UniProt Q96BR1 (whole entry, looked up): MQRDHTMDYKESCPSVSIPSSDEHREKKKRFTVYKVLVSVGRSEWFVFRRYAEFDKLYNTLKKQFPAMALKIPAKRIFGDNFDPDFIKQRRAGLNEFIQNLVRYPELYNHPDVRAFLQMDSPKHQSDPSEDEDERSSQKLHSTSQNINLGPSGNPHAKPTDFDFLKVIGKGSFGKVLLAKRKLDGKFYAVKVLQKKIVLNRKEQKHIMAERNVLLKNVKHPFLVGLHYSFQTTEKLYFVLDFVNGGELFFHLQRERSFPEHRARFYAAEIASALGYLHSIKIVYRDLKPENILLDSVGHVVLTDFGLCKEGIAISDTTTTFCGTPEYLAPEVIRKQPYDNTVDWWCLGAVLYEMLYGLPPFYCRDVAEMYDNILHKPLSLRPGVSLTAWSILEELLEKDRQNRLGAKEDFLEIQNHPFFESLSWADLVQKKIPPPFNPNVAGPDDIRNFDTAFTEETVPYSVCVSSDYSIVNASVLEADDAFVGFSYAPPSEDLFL

Set 1
Structure (SMILES): CNC(=O)c1ccc(-c2cnn3ccc(C(=O)N(C)c4ccc(Cl)c(C(=O)OC)c4)cc23)cc1
Organism: Cryptosporidium parvum
Method: time-kill
Cells: HCT-8
Strain: nanoluciferase-expressing
Reference: DMSO control
tested at	time	luminescence remaining
0.00305 µM	48 h	117% and 99.6%
2.222 µM	48 h	11.2% and 9.99%
0.2469 µM	72 h	12.7% and 10.5%
0.7407 µM	4 h	105% and 104%
2.222 µM	0 h	135% and 107% and 119% and 111% and 85% and 87.2% and 96.3% and 102%
20 µM	48 h	12.9% and 10.9%
0.2469 µM	4 h	94.7% and 91%
0.00102 µM	48 h	119% and 89.3%
20 µM	72 h	10.7% and 8.72%
0.02743 µM	8 h	77.6% and 92.8%

Set 2
Organism: Vesicular stomatitis virus
Observed: pseudovirus infection
Method: FDA-approved drug library screen
Tested at: concentration not given
Notes: VSV-G control pseudotype
Reference: vehicle
Compound	GFP-positive cells
NC[C@H]1CC[C@H](C(=O)O)CC1	88.8%
COc1ccccc1OCCNCC(O)COc1cccc2[nH]c3ccccc3c12.O=P(O)(O)O (stereo not shown)	81.1%
CC(C)OC(=O)[C@H](C)N[P@](=O)(OC[C@H]1O[C@@H](n2ccc(=O)[nH]c2=O)[C@](C)(F)[C@@H]1O)Oc1ccccc1	121%
CC(C)(S)[C@@H](N)C(=O)O	102%
O=C([O-])C1=C(CSc2nnnn2CS(=O)(=O)[O-])CS[C@@H]2[C@H](NC(=O)[C@H](O)c3ccccc3)C(=O)N12.[Na+].[Na+]	129%
O=c1[nH]cc(F)c(=O)[nH]1	106%
N#CC[C@H](C1CCCC1)n1cc(-c2ncnc3[nH]ccc23)cn1.O=P(O)(O)O	111%
COc1ccc2[n-]c([S@@+]([O-])Cc3ncc(C)c(OC)c3C)nc2c1.[Na+]	116%
O=C(O)CCCN1CCC(O[C@@H](c2ccc(Cl)cc2)c2ccccn2)CC1.O=S(=O)(O)c1ccccc1	123%
NC(=O)CCC(N)C(=O)O (racemic)	73.1%
CC(C)[N+]1(C)[C@@H]2CC[C@H]1C[C@@H](OC(=O)C(CO)c1ccccc1)C2.O.[Br-] (stereo partly shown)	103%
CCc1cc(C(N)=S)ccn1	118%
Nc1nc(N)c2nc(-c3ccccc3)c(N)nc2n1	94%
CC(=O)OCC(=O)[C@@]1(O)[C@H](C)C[C@H]2[C@@H]3CCC4=CC(=O)C=C[C@]4(C)[C@@]3(F)[C@@H](O)C[C@@]21C	90.7%
COc1cc2ncnc(Nc3ccc(F)c(Cl)c3)c2cc1OCCCN1CCOCC1	111%
C[C@]12CC[C@@H]3c4ccc(O)cc4CC[C@H]3[C@@H]1CCC2=O	108%
Cc1cn(-c2cc(NC(=O)c3ccc(C)c(Nc4nccc(-c5cccnc5)n4)c3)cc(C(F)(F)F)c2)cn1	86.2%
CC(=O)OC[C@H]1O[C@@H]([S-])[C@H](OC(C)=O)[C@@H](OC(C)=O)[C@@H]1OC(C)=O.CCP(CC)CC.[Au+]	-0.11%
Cc1cccc(CN2CCN(C(c3ccccc3)c3ccc(Cl)cc3)CC2)c1.Cl.Cl (stereo not shown)	119%
Nc1ncn([C@@H]2O[C@H](CO)[C@@H](O)[C@H]2O)c(=O)n1	61.8%
CO/N=C(\C(=O)N[C@@H]1C(=O)N2C(C(=O)O)=C(CSc3nnnn3C)CS[C@H]12)c1csc(N)n1.CO/N=C(\C(=O)N[C@@H]1C(=O)N2C(C(=O)O)=C(CSc3nnnn3C)CS[C@H]12)c1csc(N)n1.Cl	104%
C[C@@H]1CCN(C(=O)CC#N)C[C@@H]1N(C)c1ncnc2[nH]ccc12.O=C(O)CC(O)(CC(=O)O)C(=O)O	124%
Cc1onc(-c2ccccc2)c1C(=O)N[C@@H]1C(=O)N2[C@@H]1SC(C)(C)[C@@H]2C(=O)[O-].[Na+]	112%

Set 3
Target: Sodium-dependent dopamine transporter (SLC6A3, Homo sapiens, UniProt Q01959)
Sequence of UniProt Q01959 (whole entry, looked up): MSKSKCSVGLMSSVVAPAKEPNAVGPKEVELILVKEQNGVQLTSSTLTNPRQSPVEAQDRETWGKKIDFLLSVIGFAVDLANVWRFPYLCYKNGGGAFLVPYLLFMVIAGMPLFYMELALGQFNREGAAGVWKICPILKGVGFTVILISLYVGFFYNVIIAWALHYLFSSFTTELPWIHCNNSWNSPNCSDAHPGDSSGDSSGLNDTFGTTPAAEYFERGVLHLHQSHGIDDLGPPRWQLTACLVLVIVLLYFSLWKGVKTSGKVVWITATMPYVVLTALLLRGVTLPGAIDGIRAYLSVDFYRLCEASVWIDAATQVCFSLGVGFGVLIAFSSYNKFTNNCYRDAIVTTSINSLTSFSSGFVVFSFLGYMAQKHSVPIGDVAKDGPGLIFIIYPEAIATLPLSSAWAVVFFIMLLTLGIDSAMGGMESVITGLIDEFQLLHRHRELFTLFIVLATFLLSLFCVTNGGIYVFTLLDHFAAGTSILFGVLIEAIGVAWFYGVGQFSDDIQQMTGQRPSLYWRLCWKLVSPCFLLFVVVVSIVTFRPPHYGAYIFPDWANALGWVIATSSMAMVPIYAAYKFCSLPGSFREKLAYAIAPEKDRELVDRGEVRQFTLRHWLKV
Observed: cell-free assay
Tested at: 10 µM
Structure (SMILES)	inhibition [%]
C[C@H](c1ccc(F)cc1)N(Cc1ccc(Cl)c(C(=O)O)c1)C(=O)c1cnc2ccccc2c1	-12.3
O=C(c1ccc(F)cc1)N1CC(COc2ccc(Br)cc2)(C(=O)O)C1	6.07
C[C@@H](NC(=O)Nc1cc2[nH]ncc2c(CO)n1)c1ccccc1	46.5
N#CC1(c2ccccn2)CCN(Cc2cc(C(=O)N3CCCC3)c(=O)n3ccccc23)CC1	18.6
CN(C)CC#Cc1ccc(OCCCc2sc(N3CCc4cccc(C(=O)Nc5nc6ccccc6s5)c4C3)nc2C(=O)O)c(F)c1	-20.2
Cn1cc(Cl)c2c(Oc3c(F)cc(Nc4cc(Cl)nc(N)n4)cc3F)ccnc21	-11.4
Cn1nc(C(=O)NCc2ccc(C(=O)O)cc2)cc1-c1ccc2[nH]ccc2c1	-16.9
NS(=O)(=O)c1cc(NC(=O)C2(c3ccccc3Cl)CC2)ccc1Oc1cccc(Cl)c1	-12.9
Cc1ccc(-c2cnc([C@@]3(O)CC[C@H](C(=O)O)C(C)(C)C3)s2)cc1Nc1cccc(C(F)(F)F)n1	71
Cc1c(NC(=O)c2cc(C(N)=O)nc3cc(F)ccc23)c(C(F)(F)F)nn1Cc1ccc(C#N)cc1	8.22
CC1CCN(c2ccnc(NCc3cn(C)cn3)n2)CC1	20.6
FC(F)(F)c1ccc2c(c1)nc(-c1cccnc1)n2C1CC1	15.3
CCOc1ccc(S(=O)(=O)Nc2ccc(Cl)cc2C#Cc2cnc(C(=O)O)cc2OC)c2ncccc12	23.4
CC1=C(C#N)C(c2ccc3[nH]nc(C)c3c2)C(C#N)=C(C)N1	-13.9
NS(=O)(=O)c1cc(NC(=O)Cc2ccccc2)ccc1Oc1cccc(Cl)c1	37
COCCOc1nc(-c2ccc(Cl)nc2)nc2c1CN(C(=O)c1ncn3ccccc13)CC2	-16.6
Cc1cc(Nc2nccc(C)n2)cc(-c2cnc([C@@]3(O)CC[C@H](C(=O)O)C(C)(C)C3)s2)c1	39.3
Cc1ccccc1Oc1cc(-n2c(=O)cc(C(F)(F)F)[nH]c2=O)c2ccccc2c1Cl	-24.1
O=C(Nc1ccc(Oc2ccc(F)cc2)cc1)N1CCc2ncccc2[C@H]1c1ccc(F)cc1	-22.8
CCC(=NO)C(C)=Cc1ccc(F)c(C)c1	-18.9
N#CC1(c2ccccn2)CCN(Cc2cc(C(=O)O)c(=O)n3ccccc23)CC1	-7.27
COc1cc(C(=O)O)ncc1C#Cc1ccccc1NS(=O)(=O)c1cccc2c(N(C)C)ccnc12	80.3
Cn1nc(C(F)(F)F)cc1-c1cnc(N2CCc3cc(S(=O)(=O)Nc4c(F)cc(Cl)cc4F)cc(N4CCCC4=O)c32)nc1	14.5
CCOc1cc(N2C3COCC2CN(C(=O)[C@H]2C[C@H](O)CN2c2ccc(Cl)cc2)C3)ccc1Cl	3.92
O=S(=O)(NC1CCC(c2cc(F)ccc2F)(S(=O)(=O)c2ccc(Cl)cc2)CC1)C(F)(F)F (stereo not shown)	75.1

Set 4
Compound: COc1ccc2c(c1)/C(=C/c1cnc[nH]1)C(=O)N2
Observed: enzyme activity
Action: inhibitor
Tested at: 0.5 µM
Reference: control
target	remaining activity
VRK1 (Homo sapiens, UniProt Q99986)	91.2%
FGFR2 (Homo sapiens, UniProt P21802)	84%
PRKD3 (Homo sapiens, UniProt O94806)	38%
INSRR (Homo sapiens, UniProt P14616)	97.8%
PHKG2 (Homo sapiens, UniProt P15735)	88.3%
MAP3K9 (Homo sapiens, UniProt P80192)	58%
TAOK1 (Homo sapiens, UniProt Q7L7X3)	82.3%
SGK3 (Homo sapiens, UniProt Q96BR1)	101%
RAF1 (Homo sapiens, UniProt P04049)	98.3%
ULK1 (Homo sapiens, UniProt O75385)	53.4%
HCK (Homo sapiens, UniProt P08631)	96.1%
DYRK2 (Homo sapiens, UniProt Q92630)	76.9%
PLK1 (Homo sapiens, UniProt P53350)	103%
TNK2 (Homo sapiens, UniProt Q07912)	92.6%
NTRK2 (Homo sapiens, UniProt Q16620)	30.1%
ACVR1 (Homo sapiens, UniProt Q04771)	105%
DSTYK (Homo sapiens, UniProt Q6XUX3)	106%
RIPK2 (Homo sapiens, UniProt O43353)	90%

Excerpt of the above (set 4):
target	remaining activity
INSRR (Homo sapiens, UniProt P14616)	97.8%
PHKG2 (Homo sapiens, UniProt P15735)	88.3%
MAP3K9 (Homo sapiens, UniProt P80192)	58%
TAOK1 (Homo sapiens, UniProt Q7L7X3)	82.3%
SGK3 (Homo sapiens, UniProt Q96BR1)	101%
RAF1 (Homo sapiens, UniProt P04049)	98.3%
ULK1 (Homo sapiens, UniProt O75385)	53.4%
HCK (Homo sapiens, UniProt P08631)	96.1%
DYRK2 (Homo sapiens, UniProt Q92630)	76.9%
PLK1 (Homo sapiens, UniProt P53350)	103%
TNK2 (Homo sapiens, UniProt Q07912)	92.6%
NTRK2 (Homo sapiens, UniProt Q16620)	30.1%
